Measured values of several laboratories.
Each numbered part is a random draw from the data of one study; scales do not carry over between parts.
UniProt Q5XXA6, sequence (whole entry, unmodified, looked up): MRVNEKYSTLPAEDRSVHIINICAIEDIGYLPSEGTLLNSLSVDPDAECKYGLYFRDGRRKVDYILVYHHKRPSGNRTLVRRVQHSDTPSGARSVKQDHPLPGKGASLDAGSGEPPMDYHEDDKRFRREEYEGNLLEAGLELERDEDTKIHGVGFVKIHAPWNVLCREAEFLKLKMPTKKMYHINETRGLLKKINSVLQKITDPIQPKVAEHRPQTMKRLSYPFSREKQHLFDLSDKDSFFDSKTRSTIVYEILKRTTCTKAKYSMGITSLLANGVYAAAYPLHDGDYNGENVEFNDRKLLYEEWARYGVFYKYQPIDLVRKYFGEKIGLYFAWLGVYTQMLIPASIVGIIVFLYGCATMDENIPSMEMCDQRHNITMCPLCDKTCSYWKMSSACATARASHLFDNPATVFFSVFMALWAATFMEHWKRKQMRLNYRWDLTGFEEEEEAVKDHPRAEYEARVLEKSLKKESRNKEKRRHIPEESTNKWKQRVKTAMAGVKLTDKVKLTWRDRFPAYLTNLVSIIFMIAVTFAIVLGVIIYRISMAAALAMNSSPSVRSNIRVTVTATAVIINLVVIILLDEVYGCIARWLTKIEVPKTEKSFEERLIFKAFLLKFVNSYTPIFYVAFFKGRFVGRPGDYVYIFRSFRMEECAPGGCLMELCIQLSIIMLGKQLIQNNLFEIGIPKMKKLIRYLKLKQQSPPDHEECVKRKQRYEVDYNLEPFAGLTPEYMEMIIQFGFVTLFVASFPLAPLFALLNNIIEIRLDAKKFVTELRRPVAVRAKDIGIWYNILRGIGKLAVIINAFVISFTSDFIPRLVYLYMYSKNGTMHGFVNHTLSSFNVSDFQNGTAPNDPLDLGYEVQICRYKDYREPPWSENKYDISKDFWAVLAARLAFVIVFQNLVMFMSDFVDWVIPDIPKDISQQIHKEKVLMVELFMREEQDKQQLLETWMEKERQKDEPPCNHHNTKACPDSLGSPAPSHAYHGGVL
UniProt Q2M2I8, sequence (whole entry, looked up): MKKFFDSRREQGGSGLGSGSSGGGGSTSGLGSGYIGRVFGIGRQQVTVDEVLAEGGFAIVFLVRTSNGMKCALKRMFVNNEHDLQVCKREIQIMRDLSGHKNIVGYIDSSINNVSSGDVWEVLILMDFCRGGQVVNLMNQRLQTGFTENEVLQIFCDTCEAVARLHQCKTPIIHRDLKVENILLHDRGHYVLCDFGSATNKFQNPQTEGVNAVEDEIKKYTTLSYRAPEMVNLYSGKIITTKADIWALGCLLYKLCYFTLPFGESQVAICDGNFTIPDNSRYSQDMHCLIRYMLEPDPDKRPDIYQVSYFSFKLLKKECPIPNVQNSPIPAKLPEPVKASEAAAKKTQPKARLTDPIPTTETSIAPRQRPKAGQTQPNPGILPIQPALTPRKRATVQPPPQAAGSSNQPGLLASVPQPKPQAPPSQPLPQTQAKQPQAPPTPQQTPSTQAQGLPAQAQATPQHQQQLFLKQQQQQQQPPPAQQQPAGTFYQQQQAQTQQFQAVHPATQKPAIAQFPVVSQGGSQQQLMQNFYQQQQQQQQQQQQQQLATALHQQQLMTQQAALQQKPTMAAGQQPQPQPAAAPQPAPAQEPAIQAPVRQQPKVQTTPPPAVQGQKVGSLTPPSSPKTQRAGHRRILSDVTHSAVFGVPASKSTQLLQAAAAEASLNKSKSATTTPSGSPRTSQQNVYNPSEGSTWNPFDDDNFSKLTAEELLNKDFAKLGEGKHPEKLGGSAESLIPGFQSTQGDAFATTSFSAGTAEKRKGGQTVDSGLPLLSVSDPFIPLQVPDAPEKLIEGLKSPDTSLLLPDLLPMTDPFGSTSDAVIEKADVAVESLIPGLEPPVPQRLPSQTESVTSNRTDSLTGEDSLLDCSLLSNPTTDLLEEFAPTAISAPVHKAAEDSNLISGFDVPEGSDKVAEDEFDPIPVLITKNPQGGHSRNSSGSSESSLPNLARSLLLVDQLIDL
UniProt Q00526, sequence (whole entry, looked up): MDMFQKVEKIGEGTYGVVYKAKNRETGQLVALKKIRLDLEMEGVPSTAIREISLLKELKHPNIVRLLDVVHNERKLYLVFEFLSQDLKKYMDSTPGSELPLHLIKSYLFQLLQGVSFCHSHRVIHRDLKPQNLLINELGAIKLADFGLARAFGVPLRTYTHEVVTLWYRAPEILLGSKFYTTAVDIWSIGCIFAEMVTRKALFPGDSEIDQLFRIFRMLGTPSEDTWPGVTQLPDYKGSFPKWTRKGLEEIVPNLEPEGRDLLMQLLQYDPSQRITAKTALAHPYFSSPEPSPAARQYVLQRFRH
UniProt P08631, sequence (whole entry, looked up): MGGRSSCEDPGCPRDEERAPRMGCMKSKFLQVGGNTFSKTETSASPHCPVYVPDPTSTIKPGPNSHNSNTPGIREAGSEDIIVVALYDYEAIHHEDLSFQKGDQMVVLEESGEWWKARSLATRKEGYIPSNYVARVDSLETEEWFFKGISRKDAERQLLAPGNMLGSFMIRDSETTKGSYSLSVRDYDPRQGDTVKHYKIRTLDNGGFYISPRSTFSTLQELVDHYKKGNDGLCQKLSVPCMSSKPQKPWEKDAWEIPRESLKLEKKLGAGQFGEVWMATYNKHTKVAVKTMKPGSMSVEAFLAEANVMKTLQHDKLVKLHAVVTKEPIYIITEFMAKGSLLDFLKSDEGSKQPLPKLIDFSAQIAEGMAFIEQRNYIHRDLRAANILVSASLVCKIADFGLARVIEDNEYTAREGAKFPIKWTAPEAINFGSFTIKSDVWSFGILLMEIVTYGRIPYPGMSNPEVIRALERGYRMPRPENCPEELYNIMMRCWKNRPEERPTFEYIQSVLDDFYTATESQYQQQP
UniProt P43403, sequence (whole entry, looked up): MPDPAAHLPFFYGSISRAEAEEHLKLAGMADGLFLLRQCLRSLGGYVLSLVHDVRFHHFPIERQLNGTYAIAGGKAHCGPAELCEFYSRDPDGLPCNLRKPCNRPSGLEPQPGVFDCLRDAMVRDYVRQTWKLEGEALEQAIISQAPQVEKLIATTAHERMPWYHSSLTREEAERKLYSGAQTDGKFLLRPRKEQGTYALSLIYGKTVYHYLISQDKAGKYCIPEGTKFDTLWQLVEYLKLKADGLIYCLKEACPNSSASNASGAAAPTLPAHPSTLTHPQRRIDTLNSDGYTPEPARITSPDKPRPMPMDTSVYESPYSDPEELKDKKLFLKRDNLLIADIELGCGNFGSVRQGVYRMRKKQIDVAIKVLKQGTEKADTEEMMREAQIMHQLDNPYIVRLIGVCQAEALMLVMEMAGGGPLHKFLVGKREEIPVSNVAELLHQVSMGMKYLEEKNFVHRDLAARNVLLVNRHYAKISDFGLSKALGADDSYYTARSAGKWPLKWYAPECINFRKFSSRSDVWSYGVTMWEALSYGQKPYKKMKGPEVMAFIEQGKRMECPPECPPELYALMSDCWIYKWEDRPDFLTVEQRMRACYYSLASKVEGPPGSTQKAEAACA

Block 1
Target: Beta-1 adrenergic receptor (ADRB1, Homo sapiens, UniProt P08588)
UniProt P08588, sequence (whole entry, looked up): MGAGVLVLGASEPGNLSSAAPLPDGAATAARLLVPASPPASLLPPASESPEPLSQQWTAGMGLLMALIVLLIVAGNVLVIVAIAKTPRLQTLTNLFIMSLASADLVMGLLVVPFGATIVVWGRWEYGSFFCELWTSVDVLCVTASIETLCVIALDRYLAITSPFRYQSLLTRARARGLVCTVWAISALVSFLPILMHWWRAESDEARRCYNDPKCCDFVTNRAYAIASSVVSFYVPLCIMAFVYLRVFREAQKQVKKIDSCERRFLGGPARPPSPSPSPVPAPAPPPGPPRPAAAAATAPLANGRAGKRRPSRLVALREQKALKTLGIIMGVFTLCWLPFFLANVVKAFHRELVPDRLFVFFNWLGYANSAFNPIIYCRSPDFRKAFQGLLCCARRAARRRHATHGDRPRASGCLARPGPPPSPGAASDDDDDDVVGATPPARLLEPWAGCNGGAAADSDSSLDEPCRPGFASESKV
Action: antagonist
Structure (SMILES)	IC50 [µM]
COc1ccccc1N1CCN(C(=O)c2ccc(-c3cccc(C(F)(F)F)c3)o2)CC1	≥ 100
CN1CCC(Cn2ccc3c(N4CCOCC4)nc(-c4cccc5[nH]ncc45)cc32)CC1	≥ 100
Nc1nc(N)c2nc(-c3ccccc3)c(N)nc2n1	≥ 100
CC(C)NCC(O)COc1cccc2c1N(C(=O)c1cccnc1)CCC2 (stereo not shown)	≥ 100

Block 2
Structure (SMILES): C=CCc1ccc(O)c(-c2ccc(O)c(CC=C)c2)c1
Observed: chloride current
Technique: whole-cell voltage clamp
target	test	conditions	IC50 [µM]
Anoctamin-1 (ANO1, Homo sapiens, UniProt Q5XXA6, del476-501/L548A)	–	membrane voltage -60 mV	6.27
Anoctamin-1 (ANO1, Homo sapiens, UniProt Q5XXA6, del476-501/F803A)	–	membrane voltage 40 mV	11.9
Anoctamin-1 (ANO1, Homo sapiens, UniProt Q5XXA6, del476-501/F803W)	inhibitor	mutant F777W	7.43

Block 3
SMILES: CCCCN(CCCC)C(=O)CN1C[C@@H](c2cc(OC)c3c(c2)OCO3)[C@H](C(=O)O)[C@H]1CC(C)(C)CCC
Tested at: 1 µM
target	test	scale	remaining binding [%]
TAOK2 (Homo sapiens, UniProt Q9UL54)	cell-free assay, competition with immobilised ligand	–	95.4
ZAP70 (Homo sapiens, UniProt P43403)	cell-free assay, competition with immobilised ligand	–	98.5
FLT3 (Homo sapiens, UniProt P36888, ITD)	cell-free assay, competition with immobilised ligand	–	100
SRPK2 (Homo sapiens, UniProt P78362)	cell-free assay, competition with immobilised ligand	–	100
Ribosomal protein S6 kinase alpha-2, N-terminal kinase domain (RPS6KA2, Homo sapiens, UniProt Q15349)	cell-free assay, competition with immobilised ligand	–	84.7
CDK3 (Homo sapiens, UniProt Q00526)	cell-free assay, competition with immobilised ligand	–	88.1
WNK4 (Homo sapiens, UniProt Q96J92)	cell-free assay, competition with immobilised ligand	–	100
MET (Homo sapiens, UniProt P08581, Y1235D)	cell-free assay, competition with immobilised ligand	–	100
GSK3A (Homo sapiens, UniProt P49840)	cell-free assay, competition with immobilised ligand	–	79.9
CDC42BPA (Homo sapiens, UniProt Q5VT25)	cell-free assay, competition with immobilised ligand	–	96.6
HCK (Homo sapiens, UniProt P08631)	cell-free assay, competition with immobilised ligand	–	82.8
PRKCI (Homo sapiens, UniProt P41743)	cell-free assay, competition with immobilised ligand	–	100
EGFR (Homo sapiens, UniProt P00533, L858R/T790M)	cell-free assay, competition with immobilised ligand	–	100
AAK1 (Homo sapiens, UniProt Q2M2I8)	KINOMEscan	relative to: control	100

Block 4
Species: mouse
Matrix: microsomes or S9
Tested at: 2 µM
Time: 0.5 h
Structure (SMILES)	remaining compound [%]
Cc1nccc(-c2ccccc2Cl)c1C(OC(C)(C)C)C(=O)NCCO (stereo not shown)	3.99
Cc1noc(C23CC(CN2C(=O)Nc2cc(C)c4cn[nH]c4c2)C3)n1	52.3
O=C(CCCOc1ccc(Cl)cc1Cl)Nc1ccc2c(c1)COC2=O	65.7

Block 5
Cell line: mouse MPNST tumor cells
Technique: high-content immunofluorescence imaging
Refers to: nuclear SOX9
Tested at: 10 µM
Time: 12 h
Notes: mean of 2 replicates
Relative to: DMSO control
Direction: higher = more nuclear SOX9
Structure (SMILES)	nuclear SOX9 intensity
CCCCS(=O)(=O)N[C@@H](Cc1ccc(OCCCCC2CCNCC2)cc1)C(=O)O	92.4 % of DMSO
NCCC(O)(P(=O)(O)O)P(=O)(O)O	93.4 % of DMSO
CC(CNS(=O)(=O)C(C)C)c1ccc(-c2ccc(C#N)cc2)cc1 (stereo not shown)	78.7 % of DMSO

Other studies, line by line
SMILES	test	test system	conditions	measurement	result
CC(C)n1cnc(-c2ccc(F)cc2)c1-c1ncc(C(=O)Nc2ccc(N3CCN(C)CC3)cc2)[nH]1	phase 2a trial	idiopathic pulmonary fibrosis patients	dose not given, maximum grade 1, arms pooled	patients with benign prostatic hyperplasia	1%

For quick reference, copied from above (block 4):
Structure (SMILES)	remaining compound [%]
Cc1nccc(-c2ccccc2Cl)c1C(OC(C)(C)C)C(=O)NCCO (stereo not shown)	3.99
Cc1noc(C23CC(CN2C(=O)Nc2cc(C)c4cn[nH]c4c2)C3)n1	52.3
O=C(CCCOc1ccc(Cl)cc1Cl)Nc1ccc2c(c1)COC2=O	65.7
